Measured values from different studies.
Parts stem from different laboratories: compare values within a part only.

Sample 1
Substance: deucravacitinib
Technique: multiple ascending dose
Host: healthy human
Route: oral
setting	subjects with nervous system disorders [%]
6 mg twice daily	33.3
12 mg once daily	55.6
12 mg twice daily	22.2

Other studies, line by line
Substance	tested on	test	test system	setting	scale	quantity	value
semaglutide		refers to: drug dose increased	human, safety analysis set	concentration not given, 32 weeks, run-in		participants with adverse events	3.1%
chicoric acid	IPEC-J2 monolayer			together with: chloroquine 30 µM	reference: without inhibitor	Papp basolateral to apical	no effect
maraviroc			black CYP3A5 extensive metabolizers, plasma	300 mg twice daily		AUC(0-12h)	2180 ng·h/mL

A few entries again (other studies, line by line):
Substance	tested on	test	test system	setting	scale	quantity	value
maraviroc			black CYP3A5 extensive metabolizers, plasma	300 mg twice daily		AUC(0-12h)	2180 ng·h/mL
